Results gathered from unrelated publications.
Several values in a cell are separate wells, animals, samples, runs or records. ± gives the spread as reported.
Sequence of UniProt P48426 (whole entry, looked up): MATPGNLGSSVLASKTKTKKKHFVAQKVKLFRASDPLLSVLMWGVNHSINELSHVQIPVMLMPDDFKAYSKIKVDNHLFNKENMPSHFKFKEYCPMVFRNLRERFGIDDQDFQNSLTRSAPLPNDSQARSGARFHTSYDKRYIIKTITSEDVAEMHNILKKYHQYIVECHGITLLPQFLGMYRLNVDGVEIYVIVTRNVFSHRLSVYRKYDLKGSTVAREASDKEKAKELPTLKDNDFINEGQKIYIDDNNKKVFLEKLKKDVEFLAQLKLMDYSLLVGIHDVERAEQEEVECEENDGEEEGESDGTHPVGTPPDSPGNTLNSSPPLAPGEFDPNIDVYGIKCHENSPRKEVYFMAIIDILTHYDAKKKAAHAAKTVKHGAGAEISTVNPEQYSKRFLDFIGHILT

Structure (SMILES)	tested on	test	system	setting	how to read	quantity	value
CC(C)[C@H](NC(=O)[C@H](CCCNC(=N)N)NC(=O)[C@@H]1CCCN1C(=O)[C@@H](NC(=O)[C@H](C)NC(=O)[C@H](Cc1ccc(O)cc1)NC(=O)[C@H](CCC(N)=O)NC(=O)[C@H](CCCCN)NC(=O)[C@H](CCCNC(=N)N)NC(=O)[C@@H]1CCCN1C(=O)[C@H](CCC(=O)O)NC(=O)[C@@H](NC(=O)[C@H](C)N)[C@@H](C)O)[C@@H](C)O)C(=O)N[C@@H](Cc1ccccc1)C(=O)N[C@@H](Cc1c[nH]c2ccccc12)C(=O)N[C@H](C(=O)N[C@@H](CC(=O)O)C(=O)N[C@@H](C)C(=O)N1CCC[C@H]1C(=O)NCC(=O)NCCOCCOCCOCCOCCOCCOCCOCCOCCOCCOCCOCCOCCC(=O)N[C@@H](CS)C(N)=O)[C@@H](C)O	HCC1359 lung squamous carcinoma	cell binding, phage binding, refers to: output/input phage		10 min, 37 °C	reference: control phage	selectivity ratio	0.8 ± 0.2
CC=C1CNC2CC3(C(=O)N(OC)c4cc(OC)ccc43)C3CC1C2CO3 (stereo not shown)	Vero	CCK-8		up to 100 µM, 24 h		viability	no effect
CC[C@H]1CN([C@@H](CC)c2ccc(C(F)(F)F)cc2)[C@H](CC)CN1c1nc(=O)n(C)c2ccc(C#N)nc12	human CD4+ T cells	protein phosphorylation, phosphoproteomics, refers to: ZFP91 Ser69 phosphorylation		1 h, stimulation 60 min		EC50	0.00105 µM
COc1ccccc1-c1n[nH]c2nc(NC3CCN(C(=O)Cc4ccc(F)cc4F)CC3)ncc12		bead binding, competition bead pull-down, refers to: LINJ.35.1070	Leishmania donovani axenic amastigote extract	10 µM	reference: vehicle	relative abundance	0.86
CC(C)C12OC1C1OC13C1(C)CCC4=C(COC4=O)C1CC1OC13C2OC(=O)CCCOC1OC(CO)C(O)C(O)C1O (stereo not shown)	HUVEC	cell growth or viability, XTT		47 h		IC50	3.98 µM
O=C1NC2(CC2)COc2ncc(F)cc2[C@H]2COCCN2c2ccn3ncc1c3n2			Sprague-Dawley rat, female, heart	oral, 20 mg/kg/day, 4 weeks, end of treatment		organ-to-brain weight ratio	71.5 ± 10.9%
CCCCCCCCCC(=O)[O][Pt]([Cl])([Cl])[O]C(=O)CCCCCCCCC.N.N	A549/DDP cisplatin-resistant			with: survivin siRNA transfection	reference: non-transfected cells	IC50 reduction	31.7%
COc1ccccc1-c1n[nH]c2nc(N[C@H]3CC[C@H](NS(=O)(=O)CC(C)C)CC3)ncc12		bead binding, competition bead pull-down, refers to: LINJ.30.0080	Leishmania donovani extract	10 µM	reference: vehicle	relative abundance	0.13
N[C@H](C(=O)N1CCCC1)C1CCN(c2nccc3c(-c4ncc(Cl)cc4Cl)cccc23)CC1	human neutrophils	protein citrullination, inhibitor, flow cytometry, refers to: citrullinated histone H3		3.16 nM, with: ionomycin		inhibition	-1.06% and 8.81% and 9.03% and -2.64%
NC(=S)N/N=C/c1ccc(OCc2cccc(F)c2)cc1	IMR-32			100 µg/mL, 24 h	higher = more activity	catalase activity (OD450)	0.129 a.u.
CC(C)(C)C(=O)OCOP(=O)(OCOC(=O)C(C)(C)C)C1CCCN(O)C1=O (stereo not shown)	RPMI-8226					log GI50	-6.51 log M
Cc1cc(C(=O)Nc2nc3cccc(C)c3n2[C@H]2CCCCN(C(=O)/C=C/CN(C)C)C2)ccn1	Trypanosoma brucei	propidium iodide flow cytometry	bloodstream form	concentration not given, 8 h		cells in S phase	19.4%
CCOC(=O)C1(Cc2ccccc2)Oc2cc(F)ccc2N(Cc2ccccc2)C1=O (stereo not shown)	L02	cell growth or viability, CCK-8		50 µM, 72 h		inhibition	0.83%
COc1ccccc1-c1ccncc1C(=O)Nc1nnc(OCc2ccc(Cl)cc2)s1	RPE-1 BRCA1 WT parental			0.06 µM, average of 2 runs	reference: untreated	colony survival	83.8%
CN(C)[C@H]1C[C@@]23CC[C@@]4(O2)C(=CC[C@]2(C)[C@@H](c5ccc6ccncc6c5)CC[C@H]24)C=C3[C@@H](O)[C@@H]1O	Phosphatidylinositol 5-phosphate 4-kinase type-2 alpha (PIP4K2A, Homo sapiens, UniProt P48426)	ATP probe labelling, inhibitor, KiNativ profiling		0.1 µM		inhibition	-7.8%
N#Cc1cccc(-c2ccc(=O)n(Cc3cccc(-c4ncc(OCC5CCN(CC(=O)N6CCN(c7ccc8c(c7)C(=O)N(C7CCC(=O)NC7=O)C8=O)CC6)CC5)cn4)c3)n2)c1 (stereo not shown)	EBC-1	label-free proteomics, refers to: RIR1		concentration not given	reference: control	protein level fold change	-3.46

Some of these lines once more:
Structure (SMILES)	tested on	test	system	setting	how to read	quantity	value
CC[C@H]1CN([C@@H](CC)c2ccc(C(F)(F)F)cc2)[C@H](CC)CN1c1nc(=O)n(C)c2ccc(C#N)nc12	human CD4+ T cells	protein phosphorylation, phosphoproteomics, refers to: ZFP91 Ser69 phosphorylation		1 h, stimulation 60 min		EC50	0.00105 µM
